Assay results from different studies.
A part holds a random share of what one study measured.

Study 1
Target: Probable WRKY transcription factor 50, DNA-binding domain (WRKY50, Arabidopsis thaliana, UniProt Q8VWQ5, residues 99-173)
Method: DNA-protein interaction ELISA
Molecule type: double-stranded DNA, one strand shown
Sample: in vitro, bacterial lysate
Tested at: not given
Setting: whole dsDNA probe, crude lysate protein
Baseline: highest signal in screen
Reading: higher = stronger binding
Target sequence (chain): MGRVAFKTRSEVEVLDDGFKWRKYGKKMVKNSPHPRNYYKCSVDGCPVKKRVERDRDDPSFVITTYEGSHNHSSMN
Sequence | relative absorbance
AAAAAATCCCCCCGTTTCACTCTTGCAAAA | 37.5 % of maximum
AAAAAATTCACTTTTACCTTTGTGTTAAAA | 36.9 % of maximum
AAAAAAATGCGCCCTTTCTGACATAAAAAA | 13.2 % of maximum

Study 2
Target: Sal-like protein 4, full length isoform A (SALL4, Homo sapiens, UniProt Q9UJQ4, residues 1-1053)
Sequence of UniProt Q9UJQ4 (whole entry, looked up): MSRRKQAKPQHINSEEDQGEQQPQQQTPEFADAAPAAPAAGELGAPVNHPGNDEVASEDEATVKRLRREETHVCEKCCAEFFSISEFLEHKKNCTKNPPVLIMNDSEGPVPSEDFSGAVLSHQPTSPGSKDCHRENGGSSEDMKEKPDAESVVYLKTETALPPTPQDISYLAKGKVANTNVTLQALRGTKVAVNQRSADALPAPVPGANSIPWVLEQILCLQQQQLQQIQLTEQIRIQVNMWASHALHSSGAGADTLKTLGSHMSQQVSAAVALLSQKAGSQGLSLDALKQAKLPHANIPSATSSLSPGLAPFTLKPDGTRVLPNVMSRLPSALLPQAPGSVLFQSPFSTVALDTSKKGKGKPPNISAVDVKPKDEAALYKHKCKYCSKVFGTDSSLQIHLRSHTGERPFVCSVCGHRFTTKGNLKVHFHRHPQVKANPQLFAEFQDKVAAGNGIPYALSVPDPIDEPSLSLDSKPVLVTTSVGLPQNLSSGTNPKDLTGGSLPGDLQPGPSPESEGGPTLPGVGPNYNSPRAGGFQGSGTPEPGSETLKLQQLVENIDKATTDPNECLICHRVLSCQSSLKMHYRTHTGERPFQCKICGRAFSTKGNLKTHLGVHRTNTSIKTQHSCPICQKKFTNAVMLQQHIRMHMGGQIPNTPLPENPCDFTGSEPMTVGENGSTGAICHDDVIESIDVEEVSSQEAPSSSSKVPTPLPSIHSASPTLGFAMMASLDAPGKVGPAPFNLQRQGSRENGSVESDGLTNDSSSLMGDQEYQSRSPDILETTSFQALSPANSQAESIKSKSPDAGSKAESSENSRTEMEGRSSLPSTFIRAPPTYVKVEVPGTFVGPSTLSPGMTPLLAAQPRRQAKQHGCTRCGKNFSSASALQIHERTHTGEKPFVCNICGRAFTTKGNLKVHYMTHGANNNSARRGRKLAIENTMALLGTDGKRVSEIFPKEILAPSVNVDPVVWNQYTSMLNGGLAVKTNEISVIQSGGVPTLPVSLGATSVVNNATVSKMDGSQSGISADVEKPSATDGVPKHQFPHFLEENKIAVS
Method: universal PBM
Molecule type: double-stranded DNA, one strand shown
Sample: in vitro
Tested at: 600 nM
Setting: 8-mer, flanks averaged, mean of replicates
Reading: higher = stronger binding
Sequence | E-score
GCCCTTTA | -0.103
GCCGACCC | -0.398
ATCCATTC | 0.0937
GTTATTTA | 0.339
AGAGGGGG | -0.18

Study 3
Target: Histone acetyltransferase KAT6A, winged helix 1, GST fusion (KAT6A, Homo sapiens, UniProt Q92794, residues 1-85)
Method: protein binding microarray
Molecule type: double-stranded DNA, one strand shown
Sample: in vitro
Tested at: not given
Setting: 8-mer, flanks averaged, mean of 2 arrays, mostly near background
Baseline: not given
Reading: higher = stronger binding
Target sequence (chain): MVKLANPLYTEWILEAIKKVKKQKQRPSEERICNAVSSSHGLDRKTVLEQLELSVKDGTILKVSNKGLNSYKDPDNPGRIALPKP
Sequence | E-score
TAATGGCA | -0.117
ATGTTAAT | -0.167
AACGACGT | 0.0708
TCGACTCA | -0.25
CACCCCGC | 0.367

Single results of other studies
Substance | target | test | system | setting | how to read | measurement | result
PhoQ, residues 284 288 289 292 302 303 HSYLQF | PhoP, residues 12 14 15 18 19 TPWLV (Escherichia coli, UniProt P23836) | Sort-seq, refers to: YFP reporter | E. coli | PhoQ-PhoP variant library, added: 10 µM Mg2+ | baseline: high Mg2+ state, higher = stronger signaling | fold induction | 1.12

Some of these lines once more (study 3):
Sequence | E-score
TAATGGCA | -0.117
ATGTTAAT | -0.167
